Assay results gathered from unrelated publications.
Compare with care: the assays were run in different laboratories. ± marks the error that the study gave.

CCCCCCCC(=O)OC[C@H](NC(=O)[C@H](CO)NC(=O)CN)C(=O)N[C@@H](Cc1ccccc1)C(=O)N[C@@H](CC(C)C)C(=O)N[C@@H](CO)C(=O)N1CCC[C@H]1C(=O)N[C@@H](CCC(=O)O)C(=O)N[C@@H](Cc1cnc[nH]1)C(=O)N[C@@H](CCC(N)=O)C(=O)N[C@@H](CCCNC(=N)N)C(=O)N[C@H](C(=O)N[C@@H](CCC(N)=O)C(=O)N[C@@H](CCC(N)=O)C(=O)N[C@@H](CCCNC(=N)N)C(=O)N[C@@H](CCCCN)C(=O)N[C@@H](CCC(=O)O)C(=O)N[C@@H](CO)C(=O)N[C@@H](CCCCN)C(=O)N[C@@H](CCCCN)C(=O)N1CCC[C@H]1C(=O)N1CCC[C@H]1C(=O)N[C@@H](C)C(=O)N[C@@H](CCCCN)C(=O)N[C@@H](CC(C)C)C(=O)N[C@@H](CCC(N)=O)C(=O)N1CCC[C@H]1C(=O)N[C@@H](CCCNC(=N)N)C(=O)O)C(C)C
hunger score (patients with chronic HFrEF; iv infusion, 0.1 µg/kg/min, end of 120 min infusion, scale 1-10, median; direction not given): 5

COCCOCCOCCOCCOCCOCCOCCOCCC(=O)NCCCc1cc2cc3nc(cc4[nH]c(cc5nc(c(OC)c1[nH]2)C(=O)C5(C)C)cc4CCc1ccc(C(=O)O)cc1)CC3(C)C
Qy absorption maximum (water with 5% DMF; room temperature): 672 nm

CCCC(CCC)NC(=O)c1ccc(OS(=O)(=O)O)c(OC)c1
metabolite peak area (LC-MS; Sprague-Dawley rats, pooled sexes, plasma; oral, 200 mg/kg of parent drug, 1 h; baseline: total peak area): 1.72%

N=C(N)NCCC[C@@H]1NC(=O)[C@H](Cc2c[nH]c3ccccc23)NC(=O)[C@@H](CC2CCCCC2)NC(=O)[C@@H]2CCCN2C(=O)[C@@H](NC(=O)CCc2ccccc2)CCCNC1=O
K21 (two-compartment model; C57BL/6J mouse, plasma brain; oral, 1 mg/kg single dose): 2.88 h⁻¹

CN(C(=O)c1ccn2ncc(-c3ccc(C(N)=O)cc3)c2c1)c1ccc(C#N)cn1
Vss (CD-1 mouse, Wistar rat, rhesus monkey, plasma; intravenous): 1.12 L/kg

Cn1c(=O)oc2ccc(-c3ccc(CC(C#N)NC(=O)C4CNCCCO4)c(F)c3)cc21 (stereo not shown)
subjects with TEAE (measured: alanine aminotransferase increased; human; 60 mg single dose, fasted): 0%

O=C(CCCCC[N+]#[C][99Tc-5]([C]#[N+]CCCCCC(=O)N[C@H]1C(O)O[C@H](CO)[C@@H](O)[C@@H]1O)([C]#[N+]CCCCCC(=O)N[C@H]1C(O)O[C@H](CO)[C@@H](O)[C@@H]1O)([C]#[N+]CCCCCC(=O)N[C@H]1C(O)O[C@H](CO)[C@@H](O)[C@@H]1O)([C]#[N+]CCCCCC(=O)N[C@H]1C(O)O[C@H](CO)[C@@H](O)[C@@H]1O)[C]#[N+]CCCCCC(=O)N[C@H]1C(O)O[C@H](CO)[C@@H](O)[C@@H]1O)N[C@H]1C(O)O[C@H](CO)[C@@H](O)[C@@H]1O (stereo partly shown)
tumour/non-tumour ratio (SPECT/CT; BALB/c nude mouse TE-1 xenograft; 2 h; baseline: tumour over non-tumour): 6.01 ± 1.37

O=C(O)C1CN(Cc2ccc(-c3noc(-c4ccc(OCC[18F])c(C(F)(F)F)c4)n3)cc2)C1
tracer uptake (rat, brain; intravenous, 5 min): 0.027 %ID/g

C=CC(=O)Nc1cc(Nc2nccc(-c3cn(C4CC4)c4ccccc34)n2)c(OC)cc1N(C)CCNC
share of radioactivity (radio-HPLC; human male, feces; oral, 110 mg, 96 to 240 h, sample holds 16.61% dose; baseline: sample radioactivity): 22.9%

COC(=O)c1ccc(-c2cn(Cc3cc(Cl)ccc3O[11CH3])nn2)cc1
parent fraction (HPLC; rhesus monkey, plasma; 90 min): 70%

CCN(CC)c1ccc2c(-c3ccc(S(=O)(=O)NCCNC(=O)CN4CCN(CC(=O)[O-])CCN(CC(=O)O)CCN(CC(=O)[O-])CC4)cc3S(=O)(=O)[O-])c3ccc(=[N+](CC)CC)cc-3oc2c1.[64Cu+2]
tumour uptake (microPET imaging; athymic nude mice, U-87 MG glioma xenograft; 250 µCi, 4 h post-injection): 9.03 ± 0.95 %ID/g

O=c1nc(NO)ccn1[C@@H]1O[C@H](CO)[C@@H](O)[C@H]1O
mRNA level (RT-PCR, measured: CYP2E1; rats, CFA-induced arthritis, liver; oral, 80 mg/kg twice daily, 5 days; baseline: untreated arthritic rats): < 0.5 fold

COc1ccc(/C=C/c2ccc(-c3ccc(C)cn3)nc2)cc1
fluorescence quantum yield (aqueous HEPES buffer; pH 7.4, together with: quinine bisulfate reference): 0.05

CCOC(=O)CCC(=O)Oc1ccc(/C=C/C(=O)/C=C(O)/C=C/c2ccc(OC(=O)CCC(=O)OCC)c(OC)c2)cc1OC
hydrolysis rate constant ratio (plasma; 1.5 µM; baseline: rat over human): 50

Cc1cc(C(=O)N[C@@H](CO)CC(C)C)ccc1CO
metabolite peak area (LC-MS; Sprague-Dawley rats, pooled sexes, plasma; oral, 100 mg/kg of parent drug, 1 h; baseline: total metabolite peak area): 19.1%

Cc1[nH]c(/C=C2\C(=O)Nc3ccc(F)cc32)c(C)c1NC(=O)CCN1CCN(C)CC1
measured concentration (dog plasma; 40 ng/mL nominal, 24 h, 25 °C, processed samples at room temperature): 39.7 ng/mL

CCOC(=O)N1CCC(Nc2nc3c(c(=O)n(C)c(=O)n3C)n2Cc2cccc(C)c2)CC1
half-life (metabolic stability; rat, liver microsomes): 2 min

CC(C)c1cnc(-c2cc(Cl)ccc2F)cc1Nc1ccncc1C(=O)NC(CO)CO
patients with any TRAE (human patients; oral, dose not given, worst grade 3): 28.6%

COc1cc(NC(C)=O)c2c(c1O)-c1c(OC)c(OC)cc3c1C(C2)N(C)CC3 (stereo not shown)
remaining compound (rat lung homogenate; 50 µg/mL, 24 h, room temperature, post-preparative storage): 92.3 ± 4.7%

CCCCCCCCCCCCCCCC(=O)N[C@@H](CCC(=O)NCCCC[C@H](NC(=O)[C@H](C)NC(=O)[C@H](C)NC(=O)[C@H](CCC(N)=O)NC(=O)CNC(=O)[C@H](CCC(=O)O)NC(=O)[C@H](CC(C)C)NC(=O)[C@H](Cc1ccc(O)cc1)NC(=O)[C@H](CO)NC(=O)[C@H](CO)NC(=O)[C@@H](NC(=O)[C@H](CC(=O)O)NC(=O)[C@H](CO)NC(=O)[C@@H](NC(=O)[C@H](Cc1ccccc1)NC(=O)[C@@H](NC(=O)CNC(=O)[C@H](CCC(=O)O)NC(=O)[C@H](C)NC(=O)[C@@H](N)Cc1cnc[nH]1)[C@@H](C)O)[C@@H](C)O)C(C)C)C(=O)N[C@@H](CCC(=O)O)C(=O)N[C@@H](Cc1ccccc1)C(=O)N[C@H](C(=O)N[C@@H](C)C(=O)N[C@@H](Cc1c[nH]c2ccccc12)C(=O)N[C@@H](CC(C)C)C(=O)N[C@H](C(=O)N[C@@H](CCCNC(=N)N)C(=O)NCC(=O)N[C@@H](CCCNC(=N)N)C(=O)NCC(=O)O)C(C)C)[C@@H](C)CC)C(=O)O
treatment-related adverse event incidence (healthy Chinese men; sc, dose not given): 22.4%

COCC1CN(C2CCN(c3cc(OC)c(Nc4ncc(Br)c(Nc5ccc6c(c5P(C)(C)=O)OCCO6)n4)cc3C)CC2)C1
treatment-related Vomit, all grades (human patients; oral, 10 to 240 mg once daily): 37%

OC1(C(F)(F)F)CCN(c2nc(Nc3ccnc(C(F)(F)F)c3)nc(-c3cccc(C(F)(F)F)n3)n2)C1 (stereo not shown)
cumulative excretion of radioactivity (Sprague-Dawley rat, both sexes, urine and faeces; oral, 10.1 mg/kg, 168 h, together with: [14C]-labelled compound; baseline: dose): 98 ± 1.7%

O=C(O)[C@@H]1C[C@@H](O)CN1C(=O)[C@@H]1CCCN1
log beta (potentiometric titration; 37 °C, MAH-2 complex, together with: Fe(III)): 4.04

NC(=O)[C@@H](CCCCNC(=O)CNC(=O)CCC(=O)NCCc1c[nH]cn1)NC(=O)[C@@H](CCC(=O)O)NC(=O)[C@@H](CCCCNC(=O)CNC(=O)CCC(=O)NCCc1c[nH]cn1)NC(=O)[C@@H](Cc1ccc(O)cc1)NC(=O)CN1CCN(CC(=O)O)CCN(CC(=O)O)CCN(CC(=O)O)CC1 [indium-111 labelled]
muscle activity concentration (SPECT; human, CEACAM5-expressing tumours, psoas muscle; intravenous, dose not given, 24 h, together with: TF2 pretargeting 75 mg): 0.18 %ID/kg

COC(=O)C(c1ccccc1Cl)N1CCC(SCC(=O)c2cccc(OC)c2)C(=CC(=O)O)C1 (stereo not shown)
measured concentration (LC-MS/MS; human plasma; 50 ng/mL, 45 days, -80 °C): 50.4 ± 1.2 ng/mL

O=[11C](OC(C(F)(F)F)C(F)(F)F)N1CCC(CNS(=O)(=O)c2ccc(Cl)cc2)CC1
brain uptake (PET; rhesus monkey; 90 min): ~1 SUV

[11CH3]c1ccc2nc(C3CCC3)n(-c3ccc4[nH]ncc4c3)c2n1
absorbed dose (extrapolated from mouse; human male, Urinary bladder wall): 2.6 µSv/MBq

O=C(/C=C/c1ccccc1)Oc1ccc2c(c1)O/C(=C\C=C\c1ccccc1)C2=O
peak area in plasma (C57BL/6J mouse, female; i.p., 60 mg/kg single, 8 h): 807 mAU

CC(C)[C@H](NC(=O)CNC(=O)[C@H](CCC(N)=O)NC(=O)[C@H](C)N)C(=O)O
AUC(0-last) (LC-MS/MS; human, plasma; intravenous, 30 mg/kg three times daily, day 3, first dose, 10 min infusion, geometric mean): 572 ng·h/mL

CCCC[C@H](NC(=O)CNC(=O)CNC(=O)CN1CCN(CC(=O)O)CCN(CC(=O)O)CCN(CC(=O)O)CC1)C(=O)N[C@H]1Cc2cn(nn2)CCCC[C@@H](C(N)=O)NC(=O)[C@H](Cc2c[nH]c3ccccc23)NC(=O)[C@H](CCCNC(=N)N)NC(=O)[C@@H](Cc2ccccc2)NC(=O)[C@H](Cc2c[nH]cn2)NC1=O
excretion (SCID hairless mouse, female, urine and feces; intravenous, dose not given, 90 min, together with: unlabelled NDP-α-MSH blocking): 61.7 ± 9%

OCc1cn(Cc2ccc(-c3noc(-c4ccc(OCC[18F])c(C(F)(F)F)c4)n3)cc2)nn1
tracer uptake (rat, heart; intravenous, 1 h): 1.05 %ID/g

O=C(CCc1ccc(CNC(C(=O)OC2CCCC2)C2CCCCC2)cn1)NO (stereo not shown)
AUC(0-t) (human, plasma; oral, 20 mg once daily, day 7, geometric mean): 94.4 ng·h/mL

Cc1ccc(OCC(=O)O)cc1
AUC(0-last) (Sprague-Dawley rat, female, plasma; oral gavage, 100 mg/kg of parent drug): 74200 ± 30700 ng·h/mL

CC(C)(O)c1ncc([S@](N)(=O)=NC(=O)Nc2c3c(cc4c2CCC4)CCC3)s1
dose-normalised AUC(0-t) (healthy human volunteers, plasma; oral, 300 mg single dose, fasted, spray-dried dispersion): 1090 ng·h/mL/mg

Repeated from above:
O=C(CCc1ccc(CNC(C(=O)OC2CCCC2)C2CCCCC2)cn1)NO (stereo not shown)
AUC(0-t) (human, plasma; oral, 20 mg once daily, day 7, geometric mean): 94.4 ng·h/mL

Cc1ccc(OCC(=O)O)cc1
AUC(0-last) (Sprague-Dawley rat, female, plasma; oral gavage, 100 mg/kg of parent drug): 74200 ± 30700 ng·h/mL
